{"data": "Measurements pooled from the literature", "note": "A part holds a random share of what one study measured."}
{"data": "Block 1", "target": "RING finger protein unkempt homolog, zinc fingers 1-6, GST-SBP tag (UNK, Homo sapiens, UniProt Q9C0B0, residues 30-357)", "technique": "RNA Bind-n-Seq", "molecule type": "RNA", "matrix": "in vitro", "concentration": "not given", "setting": "RNA with constant flanks, human and mouse sites, ends assumed", "baseline": "input RNA pool", "direction": "higher = stronger binding", "all sequences stand within": "GGGAGUUCUACAGUCCGACGAUC … CAACAGAGGAUUGAGCAUCA", "sequence of UniProt Q9C0B0 (30-357, looked up)": "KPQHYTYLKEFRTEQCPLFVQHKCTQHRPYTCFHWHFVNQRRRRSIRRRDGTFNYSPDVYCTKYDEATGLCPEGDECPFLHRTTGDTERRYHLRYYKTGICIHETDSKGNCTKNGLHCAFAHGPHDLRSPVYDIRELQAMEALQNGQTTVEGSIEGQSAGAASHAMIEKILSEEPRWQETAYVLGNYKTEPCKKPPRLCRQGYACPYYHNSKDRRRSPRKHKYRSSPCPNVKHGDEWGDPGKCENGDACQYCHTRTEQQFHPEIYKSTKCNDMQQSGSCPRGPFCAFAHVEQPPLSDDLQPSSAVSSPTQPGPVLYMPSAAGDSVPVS"}
{"Strand": "UUUCAUGCCCGGCCUUUGUUCCCCCCGUCCAUGUGUCCUUUAGUUUCAAACAGAUCUUUAUAGUUUGUGCUUCAUAAGCCAAUUCUUAUUAUGAUUUUGGGGGACUGUUCUUCAAAGAGC", "bound/input enrichment": "0.687 ratio"}
{"Strand": "UAUUUAUAUUUAUUGACUCUUGAGUUGUUUUUGUAUAUUGGUUUUAUGAUGACGUUCGAGUAGUUCUGUAUUUGAAAGUGCCUUUGCAGCUCAGAACCACAGCAACUAUCACAAAUGACU", "bound/input enrichment": "0.543 ratio"}
{"Strand": "GCUCACAGUAUUAUGGGAAACCCAGGAAGCAAAAAUUUUCCUCGAAGAUAUUUGCCUCCAAAUUUGAAGACAUGGCCACAGAGAGGCAGAUCUUUGAGAGGCAGCCAGCAUUCCUCUCAA", "bound/input enrichment": "0.162 ratio"}
{"Strand": "UCUACAUAUUUUGCUUGGUGCCCGGAUGGUGAGCAUAUUUUAACAGCUACAUGUGCUCCCAGGUUACGGGUUAAUAAUGGAUACAAAAUUUGGCAUUAUACUGGCUCUAUCUUGCACAAG", "bound/input enrichment": "0.218 ratio"}
{"Strand": "CUGAAAGAGAAGAGAUCCCUUAGGCAAAGACUGUUGAAACCCAUGUGCCAGGAAAACUUACCUAUUGAAGCUGUUUAUCACAGAUAUAUGGUACAUUUGCUGGAGUUGGCUGUGACUUUC", "bound/input enrichment": "0.185 ratio"}
{"Strand": "AUCAGCUGGACAGAGCAGAACUAUCCUCAAGGUGGGAAGGAGAGUAAUAUGUCAACGUUAUUAGAAAGAGCUGUAGAAGCACUACAAGGAGAAAAACGAUAUUAUAGUGAUCCUCGAUUU", "bound/input enrichment": "0.933 ratio"}
{"Strand": "UCUGGGCAGAGUGAGGAGUCCCCUCGGAAACGACGGAAGGCAACGGAAGCCAUAGACUCUCUUAGGAAAUCCAAACGACUUCGGAAUAGGAAGUAGAUUGGAAUAUGGCUCUAGCUCCAG", "bound/input enrichment": "2.1 ratio"}
{"Strand": "GUGACUAUAUAAAUAUCAAAACAUGUUCACUUUGUAGGACAAAAUUAUGUUGAAAAGUUCUAGCUUAAGUGUUGGCACUUUUAUGGGGGGGAAAUCAGUUUUAAAACUAAGACUUCCAUG", "bound/input enrichment": "0.305 ratio"}
{"Strand": "UCCAGAAUACACCAAAAAAAUAGAAAACCUAUGUGCUAUGGGCUUUGAUAGGAAUGCAGUAAUAGUGGCCUUGUCUUCAAAAUCAUGGGAUGUAGAGACUGCAACAGAAUUGCUUCUGAG", "bound/input enrichment": "0.931 ratio"}
{"Strand": "UUCAACUCUGUAAACAAAGCAAAAAAUUAAAUUUUUAAAUUAAAUCAUUUGAGAUUUUUUUUUUCAAUUGGUGCUUUUAUAUUUUGUUCUCACUCGGACAGAGAAAAAGCUGCAAUUUCA", "bound/input enrichment": "0.186 ratio"}
{"Strand": "AGUAAAAAUCUACCAAUUCUCAGGCACCAGGGUCAGCAGUUGGCCAACAAAUUGCAGUGUCCUUUUGUAGACGUACCUACUGGUACAUAUCCUCGUAAAUUUAAUGAAUCACAAAUAAAG", "bound/input enrichment": "0.918 ratio"}
{"data": "Block 2", "target": "Histone acetyltransferase KAT6A, winged helix 2, GST fusion (KAT6A, Homo sapiens, UniProt Q92794, residues 85-181)", "technique": "protein binding microarray", "molecule type": "double-stranded DNA, one strand shown", "matrix": "in vitro", "concentration": "not given", "setting": "8-mer, flanks averaged, mean of 2 arrays, mostly near background", "baseline": "not given", "direction": "higher = stronger binding", "Residues (chain)": "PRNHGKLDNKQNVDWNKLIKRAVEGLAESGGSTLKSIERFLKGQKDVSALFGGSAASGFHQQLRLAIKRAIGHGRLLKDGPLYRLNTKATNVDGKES"}
{"Strand": "CCGACGGA", "E-score": 0.053}
{"Strand": "ATCATCAC", "E-score": 0.0136}
{"Strand": "CCCGCAGG", "E-score": 0.258}
{"Strand": "TCATAGAA", "E-score": 0.063}
{"Strand": "GAGATCTA", "E-score": -0.0865}
{"Strand": "GTGATGCA", "E-score": 0.0908}
{"Strand": "GAGGGTAA", "E-score": -0.141}
{"Strand": "GAGGAAGC", "E-score": 0.132}
{"Strand": "AAAGCCGC", "E-score": 0.0976}
{"Strand": "CCCAAAGC", "E-score": 0.00906}
{"Strand": "AACGAGTC", "E-score": -0.0841}
{"Strand": "GCCACGTA", "E-score": -0.286}
{"Strand": "AACCAAGG", "E-score": 0.00978}
{"Strand": "ATCGTGAG", "E-score": 0.00486}
{"Strand": "CTCACCAA", "E-score": 0.127}
{"Strand": "ATAACTGC", "E-score": -0.0502}
{"Strand": "AATCAAAG", "E-score": -0.00543}
{"Strand": "AGAGCCAT", "E-score": -0.114}
{"data": "Block 3", "target": "RNA binding protein fox-1 homolog 2, RRM domain, GST-SBP tag (RBFOX2, Homo sapiens, UniProt O43251-10, residues 100-194)", "technique": "RNA Bind-n-Seq", "molecule type": "RNA", "matrix": "in vitro", "concentration": "365 nM", "setting": "natural RNA segment, single round, ends assumed", "baseline": "no-protein control", "direction": "higher = stronger binding", "all sequences stand within": "GGGAGUUCUACAGUCCGACGAUC … UGGAAUUCUCGGGUGCCAA", "Target sequence (chain)": "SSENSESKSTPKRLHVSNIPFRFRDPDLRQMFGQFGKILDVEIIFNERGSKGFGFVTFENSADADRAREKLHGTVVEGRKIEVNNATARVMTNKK"}
{"Strand": "CUUAUUCCAAAUCCUGUCUUUUCCCCACUAUUCCAUUAGACCCCACAAAUGUUAGUUGUGUGUGUGUGUGUGUGUGUUUUUAAUCACUGUAACCGGAUGCAUUUUUUUAA", "RBNS enrichment (R)": 0.818}
{"Strand": "CGCAGUUCUUCCUAUCAGCUUCAGUGACCCAGGGUCUGAACUGCCUCCAUCCUAGGGCAACCUGGGGCAGACAGGCCUGGUGGGGGGUGGGGAAACCUCCUUCCACCUGA", "RBNS enrichment (R)": 0.216}
{"Strand": "GUACUCACAGAUCCACUGCCCGCCUCUCCUCCCCUCAUGUUCCAGGACUCACCACCGUGGUCAGACCAUGCCCAGUGUGCCCAGGGCAAAGUUGGAUGGGCAGGUGCAGA", "RBNS enrichment (R)": 0.257}
{"Strand": "UUCCAUGUGUUUUGCUUUUAUCCACUGGCAUUUUUAGCUCCUUGAAGACAUAUCAUGUGUGAGAUAACUUCCUUCACAUCUCCCAUGGUCCCUAGCAAAAUGCUAGGCCU", "RBNS enrichment (R)": 0.857}
{"Strand": "GUAAUACAAACACAAACAUCAUACACACUGACUCUGAACUGGGUGAACUCUGUGAAGGGAGGCCCAGAAUGGGUGCUUUCACCAAAAAAUUUGCCCGUUUACAAUCCUAG", "RBNS enrichment (R)": 0.417}
{"Strand": "CCAAUAAAAACUGGGAUUUUGAAUGUGGCUCUACAAGUUAAACAUUUCUGUGUGUUGUGUAUGCUAGGUGAUGCCCUCAGAAGGGACUGACUACUAGACUGUAAGUGUGU", "RBNS enrichment (R)": 1.75}
{"Strand": "ACUCAGCCUAGCUCACAGUGACUUGUGCUUCACUGUCAGGAUGCUCUGUAAAGUUCCUCAUCCCUGUGAAGCAGGGAAAGAACAGAGGUGCCUCUGGACUGCAGGAGAAA", "RBNS enrichment (R)": 0.294}
{"Strand": "GGGUAUAUAAGGCUUAAGAAUUUGGUCUAUGCCAGGCGUGGUGGCGCAUGCCUUUAAUCCCAGCACUCGGGAGGCAGAGGCAGGCGGAUUUUUGAGUUCAAGGGCAGCCU", "RBNS enrichment (R)": 0.851}
{"Strand": "GCACAUCUCCUACCAAAAUUGCUCCCAAGAUGGAGGGUGAGACCUCAGUGCUAGGUUGACAGGUGGGCGUCGCCAUGCCUGGACCAAUUCCUGCACAGCACAGGAAGGCU", "RBNS enrichment (R)": 0.181}
{"Strand": "AGGAUGCAGCCCUGGGAUCCAGCACCCAUGGAAGCUUCUGCUGGGAUGGUGUCACCUAUGGGUUUUGAACCAGUGUGGUAUGGUCCUUGGGAGCUCUGCUCUGAGCUUGC", "RBNS enrichment (R)": 1.58}
{"Strand": "AAAGCCUUUUUAAAAUGUUUUUUUUUCACUUUAAAAUAGGGUAUUCAAAGUGGAGUAACGUGUAUUUUGAAAUGAUUUUGUGUUCUAUAUAGAAUGUCCCAGUUAAGAUU", "RBNS enrichment (R)": 0.689}
{"Strand": "AGAAAACACUCUUCUCAGGAGUAGGAGAGCCUGGAGGGCUGUCAGCACCACAGUGACCUAAGCGGCUCACUUCUGAGCCUCCUCUUCAGUUUCCUGGGGGGGGGGGGGUU", "RBNS enrichment (R)": 0.409}
{"data": "Block 4", "target": "Hepatocyte nuclear factor 3-alpha (Foxa1, Mus musculus, UniProt P35582, residues 1-468, full length assumed)", "technique": "EMSA with sequencing", "molecule type": "double-stranded DNA, one strand shown", "matrix": "in vitro", "concentration": "10 and 20 nM", "setting": "whole designed probe, mean of two concentrations, ends assumed", "baseline": "negative control set to 0", "direction": "higher = stronger binding", "all sequences stand within": "GTGAGCGGTGCCCATTGATGGGGAAC … TTTCACTGGGATCGTGGGGAC", "sequence of UniProt P35582 (whole entry, looked up)": "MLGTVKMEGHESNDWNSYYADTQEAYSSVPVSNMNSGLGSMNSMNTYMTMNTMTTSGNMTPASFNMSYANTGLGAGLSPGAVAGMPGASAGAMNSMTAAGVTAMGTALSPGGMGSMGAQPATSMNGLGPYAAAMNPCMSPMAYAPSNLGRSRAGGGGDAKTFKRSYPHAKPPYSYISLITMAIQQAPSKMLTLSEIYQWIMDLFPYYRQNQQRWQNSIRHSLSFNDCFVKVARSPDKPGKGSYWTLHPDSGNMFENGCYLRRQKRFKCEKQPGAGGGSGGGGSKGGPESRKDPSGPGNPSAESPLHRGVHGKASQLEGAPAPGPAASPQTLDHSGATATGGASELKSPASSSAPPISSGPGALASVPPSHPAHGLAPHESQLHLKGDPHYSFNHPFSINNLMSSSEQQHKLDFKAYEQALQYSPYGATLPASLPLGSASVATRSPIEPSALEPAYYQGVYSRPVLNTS"}
{"Strand": "CTGCTTAATTAATTAGAAGTCCACAGGATATCAAATGCCCTAAATGCTAGGCCAGCACTCTTCATTTTCCTATTTAATCCTTTGTTTTTACTTGTTTACTTTTCTCTAAAACTTTTTTCCCCCCTCAAAGCTCATGATGGATAAAAGCATTGCATTTTCTTCACATTAATCAGTTTTAACATCACAGGCAAAA", "normalised bound fraction [ratio]": 0.432}
{"Strand": "ATCTTCCCCCTCTTCCTTGCCCCACCAGCTCACCTACGGGGGTTATTTGCAGATAGGAAAATAAATAAAGCCGGCATTCGTTAACCCTCTTCACGCGCATACTGCTGTTTGCTCTGCATCTAACATGGTCCTTACGCGAGGCGTGGCTCCGGGAGAGCAAAGCACCGTGTCAGGCGCATGATCCGGGGTGGCC", "normalised bound fraction [ratio]": 0.355}
{"Strand": "ATCTTCCCCCTCTTCCTTGCCCCACCAGCTCACCTTCCCGGGTATATTGGAGATAGGAAATTAATATAAGCCGGCATTCGTTAACCCTCTTCTGGCGCAAACTGCTGTTTACTTTGGATCTAACATGGTCCTTTGGCGACGCCAGGCTCCGGGAGAGCAAAGCACCGTGTCAGGGCCATGATCCGGGGTGGCC", "normalised bound fraction [ratio]": 0.345}
{"Strand": "CTGCTTTATTAGTTACATGAGTTGGGCAAAACCTTTTGGAATAGACCAGTGTCACCAAGACAACAGGACGGTTATAGAAAGGCAGAAAAACAATGTAATCTAACATTTTATAAGCATAAATAATAATAGTTATTCTTCTATATACATTCAGTGTCTCTAAGCAGATCCAAAGATTTGCCAAGTTTTAATGAGA", "normalised bound fraction [ratio]": -0.0101}
{"Strand": "GCACTAAAAATATGTTTTTTTAAAAAATCTCCAGGGCCACTCCTAGGGTGTGCAGTGCCCTGCAAAGATAGTTTTTGTAGGGTACTTGCCTATGTAATCTACACAATTTTAGAATTCATTCCAAAACTTACAGGTCTGTGTGAGGTATAGTGATTAATGGATAGAGAAGAGATGCTTACACATTTGTTTATTG", "normalised bound fraction [ratio]": 0.0467}
{"Strand": "TATCATGAATTTGCACTATGACAAATCAACTTTCAAGCATTTTCTTGACAGTTTTAGAGGTTTTGCCAGCTTTTGACATACATACAGACAGAGTAAACAAGGGGAAAAAAGAAAACTTAGTGAGCACGTAAGTCATGGAGTTTGAGCTCCAATAAAAATATTCATTAAAGAGGAAGAATAAGGTGGGGGGTGG", "normalised bound fraction [ratio]": 0.316}
{"note": "Excerpt of the above (block 3):"}
{"Strand": "AAAGCCUUUUUAAAAUGUUUUUUUUUCACUUUAAAAUAGGGUAUUCAAAGUGGAGUAACGUGUAUUUUGAAAUGAUUUUGUGUUCUAUAUAGAAUGUCCCAGUUAAGAUU", "RBNS enrichment (R)": 0.689}
{"Strand": "ACUCAGCCUAGCUCACAGUGACUUGUGCUUCACUGUCAGGAUGCUCUGUAAAGUUCCUCAUCCCUGUGAAGCAGGGAAAGAACAGAGGUGCCUCUGGACUGCAGGAGAAA", "RBNS enrichment (R)": 0.294}
{"Strand": "AGGAUGCAGCCCUGGGAUCCAGCACCCAUGGAAGCUUCUGCUGGGAUGGUGUCACCUAUGGGUUUUGAACCAGUGUGGUAUGGUCCUUGGGAGCUCUGCUCUGAGCUUGC", "RBNS enrichment (R)": 1.58}
{"Strand": "UUCCAUGUGUUUUGCUUUUAUCCACUGGCAUUUUUAGCUCCUUGAAGACAUAUCAUGUGUGAGAUAACUUCCUUCACAUCUCCCAUGGUCCCUAGCAAAAUGCUAGGCCU", "RBNS enrichment (R)": 0.857}
